Measured values pooled from the literature.
Compare with care: the assays were run in different laboratories. Numbers after ± are the reported error.

CC1(C)CC[C@]2(C(=O)O)CC[C@]3(C)C(=CC[C@@H]4[C@@]5(C)CC[C@H](O[C@@H]6OC[C@H](O[C@@H]7O[C@H](CO)[C@@H](O)[C@H](O)[C@H]7O)[C@H](O)[C@H]6O)[C@@](C)(CO)[C@@H]5CC[C@]43C)[C@@H]2C1  EC50 (PPARs; reporter gene, agonist; HepG2 transfected PPRE-luciferase and PPAR; 20 h): 0.9 ± 0.2 µM
COc1ccc2c(Cl)c(C(N)=O)sc2n1  adjusted retention time (none; weak affinity chromatography-MS; ethanolamine reference column): 7.39 min
O=C1Nc2ccc(-c3ccc4cc(O)ccc4c3)cc2/C1=C/c1ccc(N2CCNCC2)cc1  selectivity ratio (FGFR3; reference: IC50 FGFR3 over lowest IC50): 1
CCN1CCN(Cc2ccc(NC(=O)c3ccc(C)c(NC(=O)c4cncc(-c5cccs5)c4)c3)cc2C(F)(F)F)CC1  phosphorylation (SRC family kinases; inhibitor, Western blot; NCI-H2286 and HCC366; 0.5 µM, 3 h): inhibited
COCC1CN(C2CCN(c3cc(OC)c(Nc4ncc(Br)c(Nc5ccc6c(c5P(C)(C)=O)OCCO6)n4)cc3C)CC2)C1  p-EGFR level (EGFR Del19/T790M/C797S; western blot; Ba/F3 EGFR Del19/T790M/C797S, mouse xenograft, tumour tissue; oral, 20 mg/kg single dose, 1 to 8 h): inhibited
CC1(C)CC[C@]2(C(=O)O)CC[C@]3(C)C(=CC[C@@H]4[C@@]5(C)CC[C@H](O[C@@H]6OC[C@H](O)[C@H](O)[C@H]6O)[C@@](C)(CO)[C@@H]5CC[C@]43C)[C@@H]2C1  EC50 (PPARs; reporter gene, agonist; HepG2 transfected PPRE-luciferase and PPAR; 20 h): 6.9 ± 1 µM
C[C@@H](N)C1CCN(S(=O)(=O)c2cccc3c(=O)[nH]ccc23)CC1  duration of action (ROCK; MLC2 phosphorylation, inhibitor; HUVEC; 50 µM, 1 h then washout, with: LPA): ≥ 4 h
CC(=O)N[C@@H](Cc1ccc(O)cc1)CN(CC(=O)N[C@@H](CCCCN)CN(CC(=O)N[C@@H](Cc1ccccc1)CN(CC(=O)N[C@H]1CCCCNc2c(F)c(F)c(c(F)c2F)S(=O)(=O)c2c(F)c(F)c(c(F)c2F)NCCCC[C@@H](CN(CC(=O)N[C@@H](C)CN(CC(N)=O)S(C)(=O)=O)S(C)(=O)=O)NC(=O)CN(S(C)(=O)=O)C[C@H](CC(C)C)NC(=O)CN(S(=O)(=O)CCN)C1)S(=O)(=O)CC(C)C)S(=O)(=O)CCN)S(C)(=O)=O  IC50 (CREB; reporter gene, inhibitor, CRE Renilla luciferase; HEK-293T; 30 min, with: forskolin 10 µM for 5 h): > 100 µM
O=C(N/N=C/c1cc[n+](Cc2ccccc2)c2ccccc12)N/N=C/c1cc[n+](Cc2ccccc2)c2ccccc12  delta Tm (G-quadruplex DNA 22CTA antiparallel; FRET melting; 1 µM, K10 buffer, with: DNA 0.2 µM): 11 to 14 °C
Cc1sc2ncn(CC(=O)N3CCCC3)c(=O)c2c1-c1cccc(Br)c1  amplitude 3 area (NMDA receptor, mouse; single-channel current, outside-out patch; cortical neurons; concentration not given, with: Ca2+ 0.5 mM): 4%
Cc1ncc(Cl)cc1NC(=O)c1cc(-c2ccc(F)c(O)c2)on1  calcium retention capacity ratio (mitochondrial permeability transition pore, mouse; isolated mouse liver mitochondria; 1.56 µM; reference: untreated): 9.12 ± 0.88
CC[C@H](C)[C@H](NC(=O)[C@H](CCC(=O)O)NC(=O)[C@H](CO)NC(=O)[C@@H](NC(=O)[C@@H](N)CO)C(C)C)C(=O)N[C@@H](CCC(N)=O)C(=O)N[C@@H](CC(C)C)C(=O)N[C@@H](CCSC)C(=O)N[C@@H](Cc1c[nH]cn1)C(=O)N[C@@H](CC(N)=O)C(=O)N[C@@H](CC(C)C)C(=O)NCC(=O)N[C@@H](CCCCN)C(=O)N[C@@H](Cc1c[nH]cn1)C(=O)N[C@@H](CC(C)C)C(=O)N[C@@H](CC(N)=O)C(=O)N[C@@H](CO)C(=O)N[C@@H](CCSC)C(=O)N[C@@H](CCC(=O)O)C(=O)N[C@@H](CCCNC(=N)N)C(=O)N[C@H](C(=O)N[C@@H](CCC(=O)O)C(=O)N[C@@H](Cc1c[nH]c2ccccc12)C(=O)N[C@@H](CC(C)C)C(=O)N[C@@H](CCCNC(=N)N)C(=O)N[C@@H](CCCCN)C(=O)N[C@@H](CCCCN)C(=O)N[C@@H](CC(C)C)C(=O)N[C@@H](CCC(N)=O)C(=O)N[C@@H](CC(=O)O)C(=O)N[C@H](C(=O)N[C@@H](Cc1c[nH]cn1)C(=O)N[C@@H](CC(N)=O)C(=O)N[C@@H](Cc1ccccc1)C(=O)O)C(C)C)C(C)C  duration of maximal cAMP (PTH1 receptor; cAMP level, Epac FRET sensor; HEK293; after ligand washout): ≥ 20 min
O=S(=O)([O-])CCCSCCCN(CCCSCCCS(=O)(=O)[O-])CCCSCCCS(=O)(=O)[O-].[Na+].[Na+].[Na+]  pCu (Cu(I); competition titration; 10 µM, pH 7.0, ionic strength 0.1, with: Cu(I) 1 µM; higher = stronger binding): 11.9
CC(=O)N[C@@H](Cc1ccc(O)cc1)CN(CC(=O)N[C@@H](CCCCN)CN(CC(=O)N[C@@H](Cc1ccccc1)CN(CC(=O)N[C@H]1CCCCNc2c(F)c(F)c(c(F)c2F)S(=O)(=O)c2c(F)c(F)c(c(F)c2F)NCCCC[C@@H](CN(CC(=O)N[C@@H](C)CN(CC(N)=O)S(=O)(=O)CCNC(=N)N)S(C)(=O)=O)NC(=O)CN(S(=O)(=O)CC(C)C)C[C@H](CC(C)C)NC(=O)CN(S(=O)(=O)CCN)C1)S(=O)(=O)CC(C)C)S(=O)(=O)CCN)S(C)(=O)=O  IC50 (CREB; reporter gene, inhibitor, CRE Renilla luciferase; HEK-293T; 30 min, with: forskolin 10 µM for 5 h): > 100 µM
Cc1ccc(Cl)cc1NC(=O)c1cc(-c2cccc(O)c2)on1  calcium retention capacity ratio (mitochondrial permeability transition pore, mouse; isolated mouse liver mitochondria; 1.56 µM; reference: untreated): 9.63 ± 0.29
CC[C@H](C)[C@H](NC(=O)[C@H](CCCCN)NC(=O)[C@H](CCCNC(=N)N)NC(=O)[C@H](Cc1ccc(O)cc1)NC(C)=O)C(=O)N[C@@H](CC(C)C)C(=O)N[C@@H](CC(N)=O)C(=O)N[C@@H](CC(=O)O)C(=O)N[C@@H](CC(C)C)C(=O)N[C@@H](CO)C(=O)N[C@@H](CO)C(=O)N[C@@H](CC(=O)O)C(=O)N[C@@H](C)C(N)=O  IC50 (CREB; reporter gene, inhibitor, CRE Renilla luciferase; HEK-293T; 30 min, with: forskolin 10 µM for 5 h): > 100 µM
CCCCCCCCCC1N=C(N)N=C(N)N1c1ccc(Cl)cc1 (racemic)  EC50 (membrane disruption; SYTOX Green uptake; Escherichia coli, ATCC 25922): 150 µM
C[C@@H](N)C1CCN(S(=O)(=O)c2cccc3cnccc23)CC1  EC50 (ROCK; MLC2 phosphorylation, inhibitor, Western blot; hBMVEC; 1 h, with: LPA 5 min): 26.3 µM
Cc1cccc(C)c1NC(=O)c1cc(-c2cccc(O)c2)on1  EC50 (mitochondrial permeability transition pore, mouse; mitochondrial swelling inhibition; isolated mouse liver mitochondria; with: Ca2+): 0.0121 ± 0.0014 µM

For quick reference, copied from above:
Cc1ncc(Cl)cc1NC(=O)c1cc(-c2ccc(F)c(O)c2)on1  calcium retention capacity ratio (mitochondrial permeability transition pore, mouse; isolated mouse liver mitochondria; 1.56 µM; reference: untreated): 9.12 ± 0.88
